Experimental data pooled from the literature.
A part holds a random share of what one study measured. Positions count from the first letter of the parent shown.
Chain of UniProt P0C264 (whole entry, looked up): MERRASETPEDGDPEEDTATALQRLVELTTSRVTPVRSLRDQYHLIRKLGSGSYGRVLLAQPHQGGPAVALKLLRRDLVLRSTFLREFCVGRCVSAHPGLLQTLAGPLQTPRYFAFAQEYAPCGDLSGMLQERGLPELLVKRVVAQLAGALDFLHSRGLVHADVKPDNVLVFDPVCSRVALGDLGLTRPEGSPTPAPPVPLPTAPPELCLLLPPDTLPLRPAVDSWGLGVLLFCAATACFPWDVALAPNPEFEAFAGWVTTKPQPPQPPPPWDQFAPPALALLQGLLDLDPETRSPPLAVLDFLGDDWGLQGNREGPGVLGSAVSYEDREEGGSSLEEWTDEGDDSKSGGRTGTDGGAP
Chain of UniProt P10721 (whole entry, unmodified, looked up): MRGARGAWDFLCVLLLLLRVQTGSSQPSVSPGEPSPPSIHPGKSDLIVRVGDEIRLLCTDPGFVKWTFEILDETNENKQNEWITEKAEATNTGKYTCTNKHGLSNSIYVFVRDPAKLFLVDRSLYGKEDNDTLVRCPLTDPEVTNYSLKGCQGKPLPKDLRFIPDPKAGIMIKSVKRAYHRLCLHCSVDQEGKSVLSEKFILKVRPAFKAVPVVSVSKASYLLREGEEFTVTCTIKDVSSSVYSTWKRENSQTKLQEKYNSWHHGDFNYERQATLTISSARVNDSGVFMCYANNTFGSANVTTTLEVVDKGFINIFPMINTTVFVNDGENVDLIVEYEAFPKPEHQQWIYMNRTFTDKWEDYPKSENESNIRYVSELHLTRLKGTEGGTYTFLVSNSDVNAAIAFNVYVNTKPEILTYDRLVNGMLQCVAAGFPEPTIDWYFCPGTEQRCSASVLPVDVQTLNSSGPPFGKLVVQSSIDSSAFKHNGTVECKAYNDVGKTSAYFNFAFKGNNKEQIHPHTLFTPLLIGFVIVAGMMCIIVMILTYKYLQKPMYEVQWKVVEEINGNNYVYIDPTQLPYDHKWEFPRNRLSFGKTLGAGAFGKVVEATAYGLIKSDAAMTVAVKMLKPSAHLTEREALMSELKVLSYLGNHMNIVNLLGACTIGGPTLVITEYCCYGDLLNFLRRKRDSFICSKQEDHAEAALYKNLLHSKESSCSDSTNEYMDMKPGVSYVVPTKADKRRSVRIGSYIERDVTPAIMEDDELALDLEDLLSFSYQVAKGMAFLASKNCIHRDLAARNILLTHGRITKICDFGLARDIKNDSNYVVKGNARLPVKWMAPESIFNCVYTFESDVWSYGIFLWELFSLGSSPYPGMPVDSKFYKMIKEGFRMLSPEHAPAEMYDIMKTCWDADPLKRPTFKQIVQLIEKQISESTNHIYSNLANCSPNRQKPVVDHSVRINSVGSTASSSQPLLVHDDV
Chain of UniProt Q07912 (whole entry, looked up): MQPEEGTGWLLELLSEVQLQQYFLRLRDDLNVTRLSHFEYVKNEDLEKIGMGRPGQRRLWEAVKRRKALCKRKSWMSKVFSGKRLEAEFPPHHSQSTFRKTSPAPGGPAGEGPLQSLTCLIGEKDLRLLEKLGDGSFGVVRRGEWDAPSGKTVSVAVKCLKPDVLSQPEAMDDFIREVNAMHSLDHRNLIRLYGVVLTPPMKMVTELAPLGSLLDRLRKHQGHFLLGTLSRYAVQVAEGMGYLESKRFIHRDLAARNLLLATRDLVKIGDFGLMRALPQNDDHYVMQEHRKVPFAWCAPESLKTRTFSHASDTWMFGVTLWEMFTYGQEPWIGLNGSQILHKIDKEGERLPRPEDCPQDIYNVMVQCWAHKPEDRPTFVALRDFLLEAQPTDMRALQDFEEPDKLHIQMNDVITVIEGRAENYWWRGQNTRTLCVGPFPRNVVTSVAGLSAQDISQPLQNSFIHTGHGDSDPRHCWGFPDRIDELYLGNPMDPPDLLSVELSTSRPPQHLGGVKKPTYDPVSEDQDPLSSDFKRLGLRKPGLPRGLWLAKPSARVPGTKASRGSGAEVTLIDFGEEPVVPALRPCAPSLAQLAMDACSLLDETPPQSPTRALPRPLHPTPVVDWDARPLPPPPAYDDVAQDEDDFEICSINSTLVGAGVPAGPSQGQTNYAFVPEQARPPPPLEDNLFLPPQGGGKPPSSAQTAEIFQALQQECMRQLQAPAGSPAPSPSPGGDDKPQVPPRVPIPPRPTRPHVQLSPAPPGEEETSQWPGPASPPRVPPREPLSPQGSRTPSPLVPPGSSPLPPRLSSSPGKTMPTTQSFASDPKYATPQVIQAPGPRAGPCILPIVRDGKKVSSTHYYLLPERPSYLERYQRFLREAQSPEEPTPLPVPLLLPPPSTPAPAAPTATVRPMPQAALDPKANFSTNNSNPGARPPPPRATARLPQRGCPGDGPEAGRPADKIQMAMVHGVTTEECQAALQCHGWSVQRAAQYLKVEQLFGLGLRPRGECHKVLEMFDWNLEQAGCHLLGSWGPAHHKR
Chain of UniProt P78362 (whole entry, looked up): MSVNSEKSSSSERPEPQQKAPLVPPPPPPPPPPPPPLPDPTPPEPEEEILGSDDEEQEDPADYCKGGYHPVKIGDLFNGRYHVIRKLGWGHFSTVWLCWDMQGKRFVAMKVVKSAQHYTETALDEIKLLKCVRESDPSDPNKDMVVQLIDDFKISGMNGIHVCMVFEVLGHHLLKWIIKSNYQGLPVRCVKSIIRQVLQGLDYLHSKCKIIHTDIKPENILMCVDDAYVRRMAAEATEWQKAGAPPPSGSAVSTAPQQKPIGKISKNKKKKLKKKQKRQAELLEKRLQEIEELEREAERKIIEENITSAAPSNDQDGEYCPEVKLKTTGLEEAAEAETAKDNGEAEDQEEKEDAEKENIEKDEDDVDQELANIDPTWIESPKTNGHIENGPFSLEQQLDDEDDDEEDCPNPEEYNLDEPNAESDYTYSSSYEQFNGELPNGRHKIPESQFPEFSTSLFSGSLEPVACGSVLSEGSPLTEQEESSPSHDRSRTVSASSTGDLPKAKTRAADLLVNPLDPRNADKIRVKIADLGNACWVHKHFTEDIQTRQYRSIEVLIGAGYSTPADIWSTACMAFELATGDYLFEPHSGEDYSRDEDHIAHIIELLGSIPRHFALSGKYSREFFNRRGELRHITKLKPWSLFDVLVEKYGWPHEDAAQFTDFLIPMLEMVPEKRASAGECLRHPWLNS
Chain of UniProt P42336 (whole entry, unmodified, looked up): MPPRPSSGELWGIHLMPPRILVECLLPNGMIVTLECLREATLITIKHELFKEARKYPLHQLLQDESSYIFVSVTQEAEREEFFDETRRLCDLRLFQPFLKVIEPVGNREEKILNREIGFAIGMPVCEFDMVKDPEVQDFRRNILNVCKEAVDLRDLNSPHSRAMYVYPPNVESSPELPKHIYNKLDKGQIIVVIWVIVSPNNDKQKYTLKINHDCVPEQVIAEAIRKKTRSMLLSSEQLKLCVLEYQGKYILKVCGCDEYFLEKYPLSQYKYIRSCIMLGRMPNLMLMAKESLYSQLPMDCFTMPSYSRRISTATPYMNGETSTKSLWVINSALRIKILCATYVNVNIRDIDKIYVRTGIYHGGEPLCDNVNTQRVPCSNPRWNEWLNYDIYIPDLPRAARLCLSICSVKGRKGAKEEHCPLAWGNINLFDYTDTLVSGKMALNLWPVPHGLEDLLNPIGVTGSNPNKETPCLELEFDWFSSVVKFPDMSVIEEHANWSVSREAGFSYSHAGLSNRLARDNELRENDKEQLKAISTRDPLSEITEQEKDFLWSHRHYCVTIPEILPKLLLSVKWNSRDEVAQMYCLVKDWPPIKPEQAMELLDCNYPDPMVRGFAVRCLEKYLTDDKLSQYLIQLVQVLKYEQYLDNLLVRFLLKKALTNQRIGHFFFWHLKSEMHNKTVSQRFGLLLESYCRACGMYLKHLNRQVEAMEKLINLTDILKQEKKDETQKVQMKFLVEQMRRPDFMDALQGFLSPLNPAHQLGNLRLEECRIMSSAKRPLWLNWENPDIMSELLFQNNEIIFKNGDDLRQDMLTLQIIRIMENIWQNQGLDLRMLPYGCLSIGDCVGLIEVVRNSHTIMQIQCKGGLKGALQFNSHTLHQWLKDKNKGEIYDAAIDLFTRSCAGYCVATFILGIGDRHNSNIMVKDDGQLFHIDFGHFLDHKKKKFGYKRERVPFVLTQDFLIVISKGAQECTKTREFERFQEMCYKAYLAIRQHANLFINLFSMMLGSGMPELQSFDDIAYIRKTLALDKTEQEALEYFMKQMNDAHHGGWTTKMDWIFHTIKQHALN
Chain of UniProt Q15349 (whole entry, looked up): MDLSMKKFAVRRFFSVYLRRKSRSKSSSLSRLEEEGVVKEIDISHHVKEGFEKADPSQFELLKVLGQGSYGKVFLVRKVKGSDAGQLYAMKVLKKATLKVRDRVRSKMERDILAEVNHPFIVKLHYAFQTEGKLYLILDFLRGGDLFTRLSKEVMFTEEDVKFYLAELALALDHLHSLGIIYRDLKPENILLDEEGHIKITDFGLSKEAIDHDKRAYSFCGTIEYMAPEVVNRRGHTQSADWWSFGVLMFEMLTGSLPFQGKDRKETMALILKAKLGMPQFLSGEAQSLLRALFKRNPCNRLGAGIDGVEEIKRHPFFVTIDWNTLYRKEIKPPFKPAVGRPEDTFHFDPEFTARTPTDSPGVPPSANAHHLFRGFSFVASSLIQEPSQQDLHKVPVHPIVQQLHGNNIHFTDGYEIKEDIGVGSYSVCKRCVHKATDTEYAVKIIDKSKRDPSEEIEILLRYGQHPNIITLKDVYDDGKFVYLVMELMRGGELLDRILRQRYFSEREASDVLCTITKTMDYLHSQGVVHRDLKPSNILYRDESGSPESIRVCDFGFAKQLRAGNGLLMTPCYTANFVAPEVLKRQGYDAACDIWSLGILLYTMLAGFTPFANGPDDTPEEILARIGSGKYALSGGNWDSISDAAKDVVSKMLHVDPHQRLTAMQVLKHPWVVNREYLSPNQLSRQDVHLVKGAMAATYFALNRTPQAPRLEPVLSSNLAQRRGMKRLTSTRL

Block 1 — technique: RNA Bind-n-Seq; form: RNA; matrix: in vitro; concentration: 20 nM; setting: 6-mer, flanks averaged, single round; together with: 150 mM KCl; relative to: input library; direction: higher = stronger binding
Target: TAR DNA-binding protein 43, full length, His tag (TARDBP, Homo sapiens, UniProt Q13148, residues 1-414)
Sequence | 6-mer enrichment (R)
GACCCU | 0.683
CAGAAU | 0.688
AAGGAG | 1.58
GCAAGA | 0.984
AAGAUG | 0.836
UUAUGU | 0.728
UUACUG | 0.627
CGAAGA | 0.815

Block 2 — target: CCNA2, cyclin fold, Cln2 fusion (human); technique: yeast growth competition, sequencing; matrix: yeast; setting: strong parent motif; relative to: not given; direction: higher = stronger binding
Parent: CDC6 docking peptide (human); TLKGRRLVFDNQL
Variant | normalised enrichment score
R6I | 0.13
Q12G | 3.28
L7C | -0.424
V8E | 3.18
L2A | 1.8
K3L | 1.95
L13D | 2.98
F9K | 1.81

Block 3 — observed: cell-free assay; technique: competition with immobilised ligand; concentration: 1 µM
SMILES: CS(=O)(=O)NCC[C@H](NC(=O)c1cncc2c1cnn2-c1ccc(F)cc1)c1ccnc(S(C)(=O)=O)c1
target | remaining binding [%]
Tyrosine-protein kinase ABL1, phosphorylated (ABL1, Homo sapiens, UniProt P00519, M351T) | 100
Ribosomal protein S6 kinase alpha-2, C-terminal kinase domain (RPS6KA2, Homo sapiens, UniProt Q15349) | 100
TNK2 (Homo sapiens, UniProt Q07912) | 100
PIK3CA (Homo sapiens, UniProt P42336, H1047Y) | 100
EGFR (Homo sapiens, UniProt P00533, del752-759) | 100
DYRK1A (Homo sapiens, UniProt Q13627) | 100
KIT (Homo sapiens, UniProt P10721, T670I/V559D) | 100
SBK3 (Homo sapiens, UniProt P0C264) | 100
SRPK2 (Homo sapiens, UniProt P78362) | 100

Single results of other studies
SMILES | target | observed | mode | concentration | relative to | measurement | value
COc1ccc(Cl)cc1NC(=O)Nc1cc(C)nc2ccccc12 | Dual specificity mitogen-activated protein kinase kinase 2 (MAP2K2, Homo sapiens, UniProt P36507) | enzyme activity | inhibitor | 0.5 µM | control | remaining activity | 94.1%

Excerpt of the above (single results of other studies):
SMILES | target | observed | mode | concentration | relative to | measurement | value
COc1ccc(Cl)cc1NC(=O)Nc1cc(C)nc2ccccc12 | Dual specificity mitogen-activated protein kinase kinase 2 (MAP2K2, Homo sapiens, UniProt P36507) | enzyme activity | inhibitor | 0.5 µM | control | remaining activity | 94.1%
